Published values of several laboratories.
A part holds a random share of what one study measured. Values joined by “and” are separate records of one study, mostly repeats; a detail may differ. Substitutions count along the parent as printed.

Set 1
Target: RING finger protein unkempt homolog, zinc fingers 1-6, SBP tag (UNK, Homo sapiens, UniProt Q9C0B0, residues 30-357)
Sequence of UniProt Q9C0B0 (30-357, looked up): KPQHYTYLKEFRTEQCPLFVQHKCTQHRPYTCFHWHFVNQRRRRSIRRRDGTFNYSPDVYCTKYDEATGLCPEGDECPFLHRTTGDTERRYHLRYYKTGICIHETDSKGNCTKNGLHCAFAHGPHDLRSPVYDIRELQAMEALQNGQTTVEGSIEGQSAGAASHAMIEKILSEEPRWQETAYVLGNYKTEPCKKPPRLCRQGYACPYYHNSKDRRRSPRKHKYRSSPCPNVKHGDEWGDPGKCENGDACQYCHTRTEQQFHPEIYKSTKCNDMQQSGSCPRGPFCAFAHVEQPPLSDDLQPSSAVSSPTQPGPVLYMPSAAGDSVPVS
Technique: RNA Bind-n-Seq
Molecule type: RNA
Matrix: in vitro
Concentration: 100 nM
Notes: RNA with constant flanks, vertebrate orthologous sites, ends assumed
Reference: input RNA pool
Reading: higher = stronger binding
Shared flanks, not repeated: GGGAGUUCUACAGUCCGACGAUC … CAACAGAGGAUUGAGCAUCA
| Sequence | bound/input enrichment |
| --- | --- |
| AUAAUCACUCUAAUUGUAAUCUGAAGGAAGUGUAACAUUGUGUAGCCUUUUUGUAUAAAAUAGACAAAUAGAAAUGGUCCAAUUAGUUUCCUUUUUAAUAUGCUUAAAAUAAGCAGGUGG | 1.56 ratio |
| AGCACUGCUUGUGCAGCUCCGCAACACUGAACGCAAAGUAGCCAUUUUCACAGUCACAGUAAACGGAGCUUUAGGGUGACAUUACCAUAGUGUUACUCAUGUGCAGGUGUUGAAAAUGUA | 0.231 ratio |
| AGCAACUCAAGGAUUGAGGACAGGUUUUACAAAUAUACCAAGUAGAUAUGGAACUAAUAAUAGAAUUGGACAACCAAGACCAUGAUAGACUCUAACUUAUUUUUAUGAAGAAUAUUGAUU | 0.703 ratio |
| AGUUUUAAGCUUGUUUGCACAGGUUUGUUUUUUUUCCAUUGGAAAUGGAAUCCGUUGCCUUAGGUCUUUUAAAAUAGUGUAUUAUUAUCGUUGGGGCUGGCUCUAUGCUUGAAAACCAGU | 2.16 ratio |
| AGCUUCAGGUGAUAUUUGGCCUGGUCUUUCAGCAUAUGAUAACAGCCCAAGGUCUCCUCAUAGUCCCUCUAUUGCCUCCCCACCUAGUCAGAGUUCUUCAUGUUCUGAUGCUCACUUACU | 0.603 ratio |
| AGCAACCCAAGGAUUCAGGACUGGUUUUACAAAUAUACCAAGUAGAUAUGGAACUAACAAUAGAAUUGGACAACCAAGACCAUGAUGUACUGUAAUUUAAUUUAUUUUUAUGAGGAAUAU | 0.765 ratio |
| UAAUUCAAUGGUUGAAGGUUCAGAACUCAAAAAGGUUCGCUCCAACUCUAGAAUUUAUCAUAGGUACUUUUUACUGGAUGCCGACAUGCAGAGCCUAAGGUGGGAGCCAUCUAAGAAGGA | 0.279 ratio |
| ACGCUUCGACGUUAAGAUCACUGUGAACUCAUGACCUCGGCCGCGACGAGCACUUAACACUGAAAGCAACCUAAACCUAGUUAGUAACGAAGAAGUUCUGAUAAACACCACUAGUCUUUG | 0.358 ratio |

Set 2
Target: Prothrombin, mature alpha-thrombin (F2, Homo sapiens, UniProt P00734)
Technique: aptamer microarray, sandwich
Molecule type: DNA with 2'F-ANA
Matrix: in vitro
Concentration: 200 nM
Notes: whole 15-mer aptamer, many near background
Together with: Cy3 exosite-II aptamer, 400 nM
Reading: higher = stronger binding
Sequence: GGTTGGTGTGGTTGG
| Modification | mean fluorescence intensity |
| --- | --- |
| 2'F-ANA at 1 3 6 7 9 12 13 15 | 362 a.u. |
| 2'F-ANA at 1 2 5 6 7 8 9 11 13 14 | 158 a.u. |
| 2'F-ANA at 1 3 4 5 6 10 11 | 48.4 a.u. |
| 2'F-ANA at 1 2 4 5 8 9 11 13 14 | 50 a.u. |
| 2'F-ANA at 2 3 7 8 10 11 12 13 14 15 | 263 a.u. |
| 2'F-ANA at 2 3 5 9 10 12 13 14 | 78.1 a.u. |
| 2'F-ANA at 2 6 8 11 12 15 | 573 a.u. |
| 2'F-ANA at 2 3 4 6 12 14 | 306 a.u. |
| 2'F-ANA at 1 2 3 4 9 11 14 | 59.3 a.u. |
| 2'F-ANA at 2 3 8 13 14 | 416 a.u. |
| 2'F-ANA at 1 3 4 5 6 7 8 9 12 14 15 | 72.7 a.u. |
| 2'F-ANA at 3 4 5 6 7 8 10 12 | 59 a.u. |
| 2'F-ANA at 1 4 5 6 7 8 9 12 13 15 | 81.8 a.u. |

Set 3
Target: CCNA1, cyclin fold, Cln2 fusion (human)
Technique: yeast growth competition, sequencing
Matrix: yeast
Notes: weak parent motif
Reference: not given
Reading: higher = stronger binding
Starting sequence: INSM1 docking peptide (human); PKAIRKLHFEDEV
| Variant | normalised enrichment score |
| --- | --- |
| PKAIRALHFEDEV [K6A] | 0.548 |
| PKFIRKLHFEDEV [A3F] | 0.32 |
| PKAIRKFHFEDEV [L7F] | 0.271 |
| PKACRKLHFEDEV [I4C] | 1.53 |
| PKAIHKLHFEDEV [R5H] | -0.055 |

Single results of other studies
| Substance | target | test | test system | conditions | how to read | measurement | value |
| --- | --- | --- | --- | --- | --- | --- | --- |
| PhoQ, residues 284 288 289 292 302 303 SSCCRF | PhoP, residues 12 14 15 18 19 LWHSL (Escherichia coli, UniProt P23836) | Sort-seq, item: YFP reporter | E. coli | PhoQ-PhoP variant library, together with: 10 µM Mg2+ | reference: high Mg2+ state, higher = stronger signaling | fold induction | 11.5 and 18.7 |

For quick reference, copied from above (set 2):
| Modification | mean fluorescence intensity |
| --- | --- |
| 2'F-ANA at 1 3 4 5 6 7 8 9 12 14 15 | 72.7 a.u. |
| 2'F-ANA at 2 3 7 8 10 11 12 13 14 15 | 263 a.u. |
